Measured values from different studies.
Each numbered part is a random draw from the data of one study; scales do not carry over between parts. Changes are numbered by the printed parent chain.
Sequence of UniProt P35462 (whole entry, looked up): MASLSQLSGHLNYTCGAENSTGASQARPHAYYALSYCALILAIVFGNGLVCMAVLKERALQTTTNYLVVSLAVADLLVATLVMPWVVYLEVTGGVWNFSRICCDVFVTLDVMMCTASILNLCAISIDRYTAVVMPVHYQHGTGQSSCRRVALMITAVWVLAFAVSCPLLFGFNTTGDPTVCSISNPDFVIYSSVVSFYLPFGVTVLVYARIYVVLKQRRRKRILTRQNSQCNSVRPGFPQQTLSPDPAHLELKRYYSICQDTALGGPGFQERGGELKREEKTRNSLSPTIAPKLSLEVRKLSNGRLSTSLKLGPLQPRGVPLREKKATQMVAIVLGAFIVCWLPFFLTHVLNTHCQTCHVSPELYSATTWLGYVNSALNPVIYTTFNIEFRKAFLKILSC

Set 1 — target: CCND2, cyclin fold, Cln2 fusion (human); technique: yeast growth competition, sequencing; medium: yeast; notes: weak parent motif; relative to: not given; direction: higher = stronger binding
Starting sequence: HASPIN docking peptide (human); ASLRSVLFGLMNS
| Change | normalised enrichment score |
| --- | --- |
| S5A | -0.383 |
| F8A | -1.01 |
| S13A | -1.07 |
| L3A | -0.277 |
| G9A | -0.488 |
| N12A | 0.0137 |

Set 2 — technique: aptamer microarray, sandwich; form: DNA with 2'F-ANA; medium: in vitro; concentration: 200 nM; added: Cy3 exosite-II aptamer, 400 nM; direction: higher = stronger binding; sequence: GGTTGGTGTGGTTGG
Target: Prothrombin, mature alpha-thrombin (F2, Homo sapiens, UniProt P00734)
Notes: whole 15-mer aptamer, many near background
| Modification | mean fluorescence intensity |
| --- | --- |
| 2'F-ANA at 2 3 7 8 9 10 12 14 15 | 339 a.u. |
| 2'F-ANA at 2 4 5 7 9 10 14 | 44.9 a.u. |
| 2'F-ANA at 3 4 5 7 9 10 11 14 15 | 51.8 a.u. |
| 2'F-ANA at 2 3 4 6 8 9 | 568 a.u. |
| 2'F-ANA at 3 4 7 12 13 14 15 | 430 a.u. |
| 2'F-ANA at 1 5 6 7 8 11 13 14 15 | 46.5 a.u. |
| 2'F-ANA at 1 4 5 7 8 9 11 12 | 110 a.u. |
| 2'F-ANA at 1 4 6 7 8 9 10 11 12 14 | 48 a.u. |

Set 3 — technique: protein binding microarray; form: double-stranded DNA, one strand shown; medium: in vitro; concentration: not given; relative to: not given; direction: higher = stronger binding
Target: Histone acetyltransferase KAT6A, winged helix 1, GST fusion (KAT6A, Homo sapiens, UniProt Q92794, residues 1-85)
Notes: 8-mer, flanks averaged, mean of 2 arrays, mostly near background
Residues (chain): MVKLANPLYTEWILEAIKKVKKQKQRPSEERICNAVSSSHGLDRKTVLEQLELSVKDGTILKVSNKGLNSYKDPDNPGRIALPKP
| Sequence | E-score |
| --- | --- |
| CGTCTGGA | 0.00473 |
| GCCTTTAC | 0.116 |
| GTCAATCA | -0.158 |
| AGTACGTG | -0.123 |
| GAGATGAA | -0.139 |
| CGAACCAC | 0.0748 |
| ACTACGCT | 0.115 |
| CTATGCAA | -0.138 |

Further values, each from its own experiment
| SMILES | target | test | setting | measurement | result |
| --- | --- | --- | --- | --- | --- |
| CNC(=O)c1cc(C(=O)N[C@H]2[C@@H]3COC[C@@H]32)cc2c1O[C@@H](CF)[C@@H]2c1ccccc1 | D(3) dopamine receptor (DRD3, Homo sapiens, UniProt P35462) | binding, radioligand binding | 10 µM | inhibition | 4.11% |
